Assay results collected from several papers.
Every numbered part comes from another study and shows a few of its results, in no order. Positions count from the first letter of the parent shown.

Block 1 — method: RNAcompete; form: RNA; sample: in vitro; tested at: 20 nM; notes: 7-mer, probes averaged, single round; relative to: mean of 7-mers; direction: higher = stronger binding; measurement: 7-mer Z-score
Target: PABPC1L2, full length, GST fusion (mouse, UniProt A0ABA7IW68)
Target sequence (chain): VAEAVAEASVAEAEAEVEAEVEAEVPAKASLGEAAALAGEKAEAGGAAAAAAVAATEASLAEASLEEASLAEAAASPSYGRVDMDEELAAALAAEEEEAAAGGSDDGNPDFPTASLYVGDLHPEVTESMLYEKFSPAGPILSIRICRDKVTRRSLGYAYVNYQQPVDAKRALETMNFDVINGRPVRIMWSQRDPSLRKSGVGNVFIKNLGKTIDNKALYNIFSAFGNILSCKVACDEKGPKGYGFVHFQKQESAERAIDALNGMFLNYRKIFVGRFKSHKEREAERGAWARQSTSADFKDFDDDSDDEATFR
AUGACGA: -0.0101
AGAUUCC: -0.302
AGGAUGC: 0.124
GAAAGCA: 0.637
AUCUUCC: -0.409
GUUCAAG: -0.0736
AUUAUUU: -0.106
CCUACCU: -0.4
GAUUAGC: -0.106
GCUGCUG: -0.0591
CCAAAAC: 0.994
UUACUGC: -0.333
UAGUGCU: -0.257
AAUGCCA: 0.157
GUGCGGA: 0.133
UGCAGCU: -0.257
AACUAUG: 0.177
GGCAGAU: 0.207
CAUAGGA: -0.0591

Block 2 — target: CCNA2, cyclin fold, Cln2 fusion (human); method: yeast growth competition, sequencing; sample: yeast; notes: strong parent motif; relative to: not given; direction: higher = stronger binding; measurement: normalised enrichment score
Starting sequence: CENPC docking peptide (human); VKTKKRLNFDDKV
T3A: 7.24
L7A: 0.866
N8A: 3.74
K5R F9L: 2.66
F9L: 1.15
K5A L7A: 0.627
V1A: 5.41
K2A: 3.79
K5A: 1.27
D11A: 4.39

Block 3 — target: CEBPB, bZIP domain (human); method: DHFR protein complementation; sample: yeast; relative to: wild-type JUN-FOS pair; direction: higher = stronger binding; measurement: binding fitness
Notes: single substitutions, most at no-binding floor
Starting sequence: JUN, bZIP domain (human); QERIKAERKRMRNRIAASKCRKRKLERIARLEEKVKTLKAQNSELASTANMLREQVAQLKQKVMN; partner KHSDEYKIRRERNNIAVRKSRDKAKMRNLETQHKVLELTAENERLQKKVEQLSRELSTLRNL
N42L: -1.51 natural log
K36N: -1.29 natural log
E33C: -1.45 natural log
A29P: -1.42 natural log
L38R: -1.52 natural log
K39E: -1.22 natural log
Q58P: -1.51 natural log
L31D: -1.36 natural log
L38V: -1.47 natural log
K39D: -1.41 natural log
S47C: -1.35 natural log
A46M: -1.24 natural log
V35P: -1.52 natural log
N42S: -1.5 natural log
L52I: -1.44 natural log
K36I: -1.43 natural log
T37L: -1.19 natural log

Block 4 — method: DHFR PCA, deep sequencing; sample: yeast; added: (+)-ABA 200 µM; relative to: wild-type fitted maximum; direction: higher = stronger binding; measurement: relative binding score
Target: ABI1, truncated, D143A, DHFR fusion (Arabidopsis thaliana)
Notes: methotrexate growth selection, single substitutions
Starting sequence: PYL1, truncated, DHFR fusion (Arabidopsis thaliana); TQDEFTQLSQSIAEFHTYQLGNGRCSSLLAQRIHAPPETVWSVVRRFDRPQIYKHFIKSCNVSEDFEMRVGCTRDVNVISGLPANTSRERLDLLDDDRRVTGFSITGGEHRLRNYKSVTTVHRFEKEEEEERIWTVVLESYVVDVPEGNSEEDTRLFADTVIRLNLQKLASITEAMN; partner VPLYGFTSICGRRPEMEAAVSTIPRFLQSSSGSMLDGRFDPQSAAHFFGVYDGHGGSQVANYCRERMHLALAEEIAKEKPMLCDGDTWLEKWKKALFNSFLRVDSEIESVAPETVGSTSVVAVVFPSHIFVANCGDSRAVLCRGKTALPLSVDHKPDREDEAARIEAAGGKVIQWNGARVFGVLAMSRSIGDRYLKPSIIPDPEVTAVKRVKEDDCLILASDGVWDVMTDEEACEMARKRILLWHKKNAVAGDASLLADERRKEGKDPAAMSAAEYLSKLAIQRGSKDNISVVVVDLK
F103W: 65.2%
D3M: 103%
L138D: 7.38%
L20W: 92.3%
F103S: 2.33%
E131D: 114%
T106E: 94.2%
S80I: 23.9%
V78S: 55.2%
S59Q: 96.8%
F15H: 96.8%
E67T: 102%

Block 5 — method: protein binding microarray; form: double-stranded DNA, one strand shown; sample: in vitro; tested at: not given; relative to: not given; direction: higher = stronger binding; measurement: E-score
Target: Histone acetyltransferase KAT6A, both winged helices, GST fusion (KAT6A, Homo sapiens, UniProt Q92794, residues 1-181)
Notes: 8-mer, flanks averaged, mean of 2 arrays, mostly near background
Construct (chain): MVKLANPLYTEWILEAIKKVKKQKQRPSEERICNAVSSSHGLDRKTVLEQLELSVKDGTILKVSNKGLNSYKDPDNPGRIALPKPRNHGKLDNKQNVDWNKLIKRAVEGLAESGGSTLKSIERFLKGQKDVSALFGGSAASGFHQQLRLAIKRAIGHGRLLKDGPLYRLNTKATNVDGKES
GAAAACTA: -0.031
AAGGCACG: -0.00377
CAAAGCTC: -0.121
TCAGAGAA: -0.149
ATAGCTAC: -0.231
CTTTACAA: -0.0501
GGGCCCCC: -0.00327
CTTTTTTC: -0.0368
ATACTACG: 0.0912
CAATCCGG: 0.133
AAATACAC: -0.0458
CAATGCTA: -0.132
ATCGAGGC: -0.0106
CTACGAGC: 0.00132
CCACTAGA: -0.159
CTAATCAG: -0.0936
CGCAGCAA: 0.0498
AAACCGCA: -0.0241
ACCAACGG: 0.138
CTTATTGC: -0.137
ACAAAAAT: -0.0512
CTCTAGAA: -0.178
GCTAAGAA: -0.151
CTTTCGAA: -0.0483
CCAGGACG: 0.13

Block 6 — method: aptamer microarray, sandwich; form: DNA with 2'F-ANA; sample: in vitro; tested at: 200 nM; added: Cy3 exosite-II aptamer, 400 nM; direction: higher = stronger binding; measurement: mean fluorescence intensity; sequence: GGTTGGTGTGGTTGG
Target: Prothrombin, mature alpha-thrombin (F2, Homo sapiens, UniProt P00734)
Notes: whole 15-mer aptamer, many near background
2'F-ANA at 1 5 7 8 9 12 13 14 15: 48.8 a.u.
2'F-ANA at 1 6 7 9 10 11 14: 48.1 a.u.
2'F-ANA at 1 5 9 11 12 14 15: 51.5 a.u.
2'F-ANA at 1 3 5 6 7 11 12 13 14 15: 49.1 a.u.
2'F-ANA at 1 8 9 11 15: 173 a.u.
2'F-ANA at 2 3 6 7 13: 488 a.u.
2'F-ANA at 1 2 3 4 5 6 7 8 10 11 12 13 14: 54.5 a.u.
2'F-ANA at 2 3 4 5 6 7 8 10 11 15: 50.6 a.u.
2'F-ANA at 1 4 5 7 8 10: 46.6 a.u.
2'F-ANA at 2 4 7 9 11: 292 a.u.
2'F-ANA at 2 8 10 14 15: 80.5 a.u.
2'F-ANA at 3 8 11 12 13 14: 641 a.u.
2'F-ANA at 2 3 4 5 7 8 9 10 11 12: 59.7 a.u.
2'F-ANA at 1 3 5 6 10 11 13 15: 61.3 a.u.
2'F-ANA at 1 2 5 8 9 14: 47.2 a.u.
2'F-ANA at 1 4 8 10 11 14: 48.4 a.u.
2'F-ANA at 1 2 3 5 6 8 11 15: 94.6 a.u.
2'F-ANA at 5 6 7 8 9 10 11 14 15: 47 a.u.
2'F-ANA at 1 2 7 8 9 10 11 12 13 15: 70.8 a.u.
2'F-ANA at 4 8 9 12: 572 a.u.
2'F-ANA at 1 2 4 5 7 10 11 12 13 14 15: 47.2 a.u.

A few entries again (block 1):
AGGAUGC: 0.124
GAAAGCA: 0.637
AUCUUCC: -0.409
GUUCAAG: -0.0736
AUUAUUU: -0.106
CCUACCU: -0.4
GAUUAGC: -0.106
